Results pooled from the literature.
Protocols differ between the studies behind these lines. Numbers after ± are the reported error.

The plasma concentration of `CC(CCC(=O)NCC(=O)O)C1CCC2C3CCC4CC(OC5OC(C(=O)O)C(O)C(O)C5O)CCC4(C)C3CC(O)C12C` (stereo not shown) is reported as 516 ng/mL (human, SLCO1B1 *5/*15, plasma; geometric mean, sex-adjusted).
The capacity factor of `Cc1ccc2ccc3ccc(C)nc3c2n1.O.[99Tc+].[C-]#[O+].[C-]#[O+].[C-]#[O+]` is reported as 4.4 (RP-HPLC C18 column, measured: aqua complex; MeCN:water 40:60, 0.1% TFA; isocratic elution).
`CC1N=C(c2ccccc2F)c2cc(Br)ccc2-n2cnc(C(=O)OC3OC(CO)C(O)C(O)C3O)c21` (stereo not shown): “excretion in urine and feces” 2.8 ± 0.5% (Swiss Webster mouse; oral, 750 µg of parent drug, 0 to 48 h; baseline: dose).
With `CN1C(=O)C2(Cc3ccc(CC45SSC(CO)(C(=O)N4C)N(C)C5=O)cc3)SSC1(CO)C(=O)N2C` (racemic) the reduced fraction was greater than 90% (LC-MS; solution; concentration not given, with: DTT 100 µM).
`COC(=O)C[C@](O)(CCCC(C)(C)OC(C)=O)C(=O)O[C@@H]1C(OC)=C[C@]23CCCN2CCc2cc4c(cc2[C@H]13)OCO4`: tissue concentration “not detected” (CD1 mouse, bone marrow; oral, 1 mg/kg, 24 h, below quantification limit 1.00 ng/mL).
`CC(C)C[C@H](NC(=O)[C@H](CCCCN)NC(=O)[C@H](CCC(=O)O)NC(=O)[C@H](C)NC(=O)[C@@H](NC(=O)[C@H](CCCCN)NC(=O)[C@H](CC(=O)O)NC(=O)[C@H](Cc1ccc(O)cc1)NC(=O)[C@H](Cc1ccccc1)NC(=O)[C@H](C)NC(=O)[C@H](CCCCN)NC(=O)[C@H](CC(C)C)NC(=O)[C@H](Cc1c[nH]c2ccccc12)NC(=O)[C@@H](N)CC(=O)O)C(C)C)C(=O)N[C@@H](CCCCN)C(=O)N[C@@H](CCC(=O)O)C(=O)N[C@@H](C)C(=O)N[C@@H](Cc1ccccc1)C(=O)N1CCC[C@H]1C(=O)N[C@@H](CC(=O)O)C(=O)N[C@@H](Cc1c[nH]c2ccccc12)C(=O)N[C@@H](C)C(=O)N[C@@H](CCCCN)C(=O)N[C@@H](C)C(=O)N[C@@H](C)C(=O)N[C@@H](Cc1ccc(O)cc1)C(=O)N[C@@H](CC(=O)O)C(=O)N[C@@H](CCCCN)C(=O)N[C@@H](C)C(=O)N[C@@H](C)C(=O)N[C@@H](CCC(=O)O)C(=O)N[C@@H](CCCCN)C(=O)N[C@@H](C)C(=O)N[C@@H](CCCCN)C(=O)N[C@@H](CCC(=O)O)C(=O)N[C@@H](C)C(=O)N[C@@H](C)C(=O)O`: “volume of distribution at steady state” 0.044 L/kg (cynomolgus monkey female, plasma; intravenous infusion, 75 mg/kg, day 1, 30 min infusion).
`O=C(c1ccc(F)cc1)C1CCN(C2Cc3c(cccc3OCC[18F])CC2O)CC1` (single isomer, unassigned; (-)) has a tissue uptake of 0.685 ± 0.082 %ID/g (Sprague-Dawley rat, male, spleen; intravenous, dose not given, 30 min).
`CCC[C@@H]1O[C@@H]2C[C@H]3[C@@H]4C[C@H](F)C5=CC(=O)CC[C@]5(C)[C@@]4(F)[C@@H](O)C[C@]3(C)[C@]2(C(=O)CO)O1` has a half-life of 20.4 min (CD1 mice, plasma; subcutaneous, 0.2 mg/kg).
Under “subjects with adverse event”, `CC[C@@H]1C[C@]1(NC(=O)[C@@H]1C[C@@]2(CN1C(=O)[C@@H](NC(=O)[C@@H](NC(=O)[C@@H]1CCCCN1C(C)C)C1CCCCC1)C(C)(C)C)C(C)(C)C21CCC1)C(=O)NS(=O)(=O)N1CCCC1` is recorded as 0% (measured: upper respiratory tract infection; human; oral, 50 mg, day 2, with: ritonavir 100 mg simultaneously).
`COc1ccc(NC(=O)Cn2c(=O)c3ccccc3n(CC(=O)Nc3cc([125I])c(OC)cc3OC)c2=O)cc1` has a tracer uptake of 0.64 %ID/g (rat, lung; intravenous, 5 min).
`CC[C@H](C)[C@H](NC(=O)[C@H](CCCCN)NC(=O)CNC(=O)[C@@H](NC(=O)[C@H](Cc1c[nH]cn1)NC(=O)[C@H](Cc1c[nH]cn1)NC(=O)[C@@H](NC(=O)CNC(=O)[C@H](Cc1c[nH]cn1)NC(=O)[C@H](Cc1ccccc1)NC(=O)[C@H](CC(C)C)NC(=O)[C@H](CC(C)C)NC(=O)[C@H](CCCNC(=N)N)NC(=O)[C@H](Cc1ccccc1)NC(=O)[C@@H](N)Cc1ccccc1)C(C)C)C(C)C)C(=O)N[C@@H](CCCCN)C(=O)N1CCC[C@H]1C(=O)N[C@@H](CCCNC(=N)N)C(=O)N[C@@H](C)C(N)=O` — result for “acute toxic concentration”: 25 µg/mL (zebrafish embryos; 1 h, 4, 28, 52 hpf).
`COc1cc(NC(=O)C(=O)c2c(C)n(Cc3ccc(Cl)cc3)c3ccc(C)cc23)ccn1` gave a Cmax of 517 ng/mL (cynomolgus monkey, plasma; oral, 10 mg/kg).
`CC1=CC(C)(C)N=C2C=CC(=O)C=C12` — result for “dose with liver alterations”: no less than 87.5 mg/kg/day (female Wistar Han rats, liver; oral, 2 days).
The alkaline phosphatase of `C[C@@H](O)[C@H](NC(=O)[C@H](CCCCN)NC(=O)COCCN)C(=O)N[C@@H](CCCNC(=N)N)C(=O)NC(C)(C)C(=O)N[C@@H](CCCNC(=N)N)C(=O)NC(C)(C)C(=O)N[C@H](C(=O)N[C@@H](CO)C(=O)N[C@@H](Cc1c[nH]cn1)C(=O)N[C@@H](Cc1ccc(O)cc1)C(=O)NCC(=O)O)[C@@H](C)O` is reported as 100 to 214 U/L (C57BL/6 mouse, blood; intravenous, 50 mg/kg, 10 h).
`O=c1cc(-c2ccccc2)oc2c(Br)c(O)c(O)c(O)c12` has a CL of 515 ± 298 mL/h (C57BL/6 mouse, plasma; po, 150 mg/kg).
`Cc1ccc(/C=C/C(=O)O)cc1-c1cc2c(cc1C)C(C)(C)CCC2(C)C` gave a blood triglycerides of 357 ± 307 mg/dL (Sprague-Dawley rat, male; oral, 100 mg/kg, 6 h, sesame oil vehicle).
Under “subjects with trichomoniasis TEAE”, `CC[C@H](C)C(=O)N1CCC(NC(=O)Nc2ccc(OC(F)(F)F)c(F)c2)CC1` is recorded as 16.7% (healthy volunteers; oral, 2 mg single dose).
`[3H]c1sc(C)nc1C=C(C)C1CC2C(CCCC(C)C(O)C(C)C(=O)C(C)(C)C(O)CC(=O)O1)N2CCO` (stereo not shown) gave a plasma concentration of 13.5 ± 2 ng/mL (LC-MS/MS; tumour-bearing CD2F1 mice, plasma; intravenous, 2.2 nmol/kg, 24 h).
Under “serum indirect bilirubin”, `CN(C)C(CNC(=O)Nc1cc(C(F)(F)F)ccc1N1CCOCC1)c1ccncc1` (stereo not shown) is recorded as 0.2 mg/dL (mouse, serum; intraperitoneal, 180 mg/kg single dose).
`CCCCCCCC/C=C\CCCCCCCCOP(O)(O)=S.N`: “time to disappearance of toxic signs” no more than 1 h (mouse; subcutaneous, 25 mg/kg).
`CC(C)C[C@@H](N)C(=O)NCC(=O)N[C@H](C)C(=O)N[C@H](CO)C(=O)N[C@H](Cc1c[nH]c2ccccc12)C(=O)N[C@H](Cc1c[nH]cn1)C(=O)N[C@H](CCCNC(=N)N)C(=O)N1CCC[C@@H]1C(=O)N[C@H](CC(=O)O)C(=O)N[C@H](CCCCN)C(=O)N[C@H](CS)C(=O)N[C@H](CS)C(=O)N[C@H](CC(C)C)C(=O)NCC(=O)N[C@H](Cc1ccc(O)cc1)C(=O)N[C@H](CCC(N)=O)C(=O)N[C@H](CCCCN)C(=O)N[C@H](CCCNC(=N)N)C(=O)N1CCC[C@@H]1C(=O)N[C@H](CC(C)C)C(=O)N1CCC[C@@H]1C(N)=O` gave an accuracy of 97.6% (LC-MS/MS; rat plasma; 25 ng/mL, 12 h, 25 °C, room temperature before extraction; baseline: nominal).
Under “subjects with adverse events”, `CC(C)[C@H](NC(=O)CNC(=O)[C@H](CCC(N)=O)NC(=O)[C@H](C)N)C(=O)O` is recorded as 0% (Probably drug-related; human; 10 mg/kg, 3 days, thrice daily dosing).

Repeated from above:
Under “subjects with adverse events”, `CC(C)[C@H](NC(=O)CNC(=O)[C@H](CCC(N)=O)NC(=O)[C@H](C)N)C(=O)O` is recorded as 0% (Probably drug-related; human; 10 mg/kg, 3 days, thrice daily dosing).
